{"data": "Measurements gathered from unrelated publications", "note": "Protocols differ between the studies behind these lines. ± marks the error that the study gave."}
{"SMILES": "Oc1c(/N=N/c2ccccn2)ccc2ccccc12", "target or system": "Mus musculus", "assay": "gene silencing, high-content imaging", "test system": "LDR reporter GFP cells", "setting": "retest run 1", "measurement": "AC50", "result": "3.98 µM"}
{"SMILES": "C=CC(=O)Nc1cccc(Cn2ncc3cnc(Nc4cnn(CCOC)c4)nc32)c1", "target or system": "human PKAC-alpha", "assay": "KINOMEscan", "setting": "100 nM", "how to read": "reference: control", "measurement": "binding", "result": "100%"}
{"SMILES": "COc1cccc(/C=N/Nc2nc(Nc3ccccc3)nc(-n3nc(C)cc3C)n2)c1O", "target or system": "Mus musculus", "assay": "gene silencing, high-content imaging", "test system": "LDR reporter GFP cells", "setting": "retest, mean of two runs", "measurement": "EC50", "result": "5.01 µM"}
{"SMILES": "CNS(=O)(=O)Nc1nccc(Cc2c(C)c3ccc(Oc4ncccc4F)cc3oc2=O)c1F", "target or system": "HDQ-P1", "assay": "cell viability", "setting": "7 days", "measurement": "IC50", "result": "0.0106 µM"}
{"SMILES": "Cc1ncsc1-c1ccc(C(C)NC(=O)C2CC(O)CN2C(=O)C(NC(=O)CCCCCCCCCCN2CCCC(Nc3ncc(Cl)c(Nc4ccccc4S(=O)(=O)C(C)C)n3)C2)C(C)(C)C)cc1 (stereo not drawn)", "target or system": "22Rv1", "assay": "RNA-seq, item: PPP3CB-AS1", "setting": "concentration not given", "how to read": "reference: DMSO", "measurement": "log2 fold change", "result": -1.32}
{"SMILES": "COC1OC(C)C(OC2OC(C)C(O)C(OC3OC(C)C(OC4OC(C)C(O)C(OC5OC(C)C(OC6OC(C)C(O)C(OC7OC(C)C(OC8OC(C)C(O)C(OC9OC(C)C(OC%10OC(C)C(O)C(OC%11OC(C)C(OC%12OC(C)C(O)C(OS(=O)(=O)O)C%12OS(=O)(=O)O)C(OS(=O)(=O)O)C%11OS(=O)(=O)O)C%10OS(=O)(=O)O)C(OS(=O)(=O)O)C9OS(=O)(=O)O)C8OS(=O)(=O)O)C(OS(=O)(=O)O)C7OS(=O)(=O)O)C6OS(=O)(=O)O)C(OS(=O)(=O)O)C5OS(=O)(=O)O)C4OS(=O)(=O)O)C(OS(=O)(=O)O)C3OS(=O)(=O)O)C2OS(=O)(=O)O)C(OS(=O)(=O)O)C1OS(=O)(=O)O (stereo not drawn)", "test system": "human plasma", "setting": "128 µg/mL", "measurement": "prothrombin time", "result": "14.7 ± 0.3 s"}
{"SMILES": "C=CC(=O)N1[C@@H](c2ccc3c(c2)OCO3)c2[nH]c3ccccc3c2C[C@H]1C(=O)N1CCN(C)CC1", "target or system": "human cyclin E1 wild type-3xFLAG:CDK2", "assay": "co-IP with TMT proteomics, item: SRP9", "setting": "concentration not given, P49458", "how to read": "reference: wild type DMSO", "measurement": "relative co-enrichment", "result": "91%"}
{"SMILES": "CC(C)c1ccc(N(C)c2ccc3c(c2)OCC[C@H]3CNc2cnccc2C(=O)O)cc1", "target or system": "Hs 695T", "assay": "cell growth or viability, ATP luminescence", "setting": "7 days", "measurement": "IC50", "result": "≥ 10 µM"}
{"SMILES": "C[n+]1cccc2cc(/C=N/NC(=O)c3cc(C(=O)N/N=C/c4ccc5c(ccc[n+]5C)c4)ncn3)ccc21", "target or system": "MYC parallel G4 DNA", "assay": "FRET melting", "setting": "1 µM, DNA 0.2 µM, together with: duplex DNA competitor 10 µM", "measurement": "ΔTm", "result": "2 ± 0.4 °C"}
{"SMILES": "CCCC(=O)N1CCN(c2ccc(NC(=O)c3ccc([N+](=O)[O-])o3)cc2Cl)CC1", "target or system": "Mus musculus", "assay": "gene silencing, high-content imaging", "test system": "LDR reporter GFP cells", "setting": "confirmation, mean of two runs", "measurement": "EC50", "result": "1.26 µM"}
{"SMILES": "C[n+]1cc(/C=N/NC(=O)N/N=C/c2cc3ccccc3[n+](C)c2)cc2ccccc21", "target or system": "hp2 hairpin duplex DNA", "assay": "FRET melting", "setting": "1 µM, together with: ds26 10 µM", "measurement": "ΔTm", "result": "0.9 ± 0.2 °C"}
{"SMILES": "O=C(NN1C(=O)c2ccccc2NC1c1ccc([N+](=O)[O-])o1)c1ccc([N+](=O)[O-])cc1 (stereo not drawn)", "target or system": "Mus musculus", "assay": "gene silencing, high-content imaging", "test system": "LDR reporter GFP cells", "setting": "confirmation, mean of two runs", "measurement": "EC50", "result": "31.6 µM"}
{"SMILES": "COC1OC(C)C(OC2OC(C)C(OS(=O)(=O)O)C(OC3OC(C)C(OC4OC(C)C(OS(=O)(=O)O)C(OC5OC(C)C(OC6OC(C)C(OS(=O)(=O)O)C(OC7OC(C)C(OC8OC(C)C(OS(=O)(=O)O)C(OC9OC(C)C(OC%10OC(C)C(OS(=O)(=O)O)C(OC%11OC(C)C(OS(=O)(=O)O)C(OS(=O)(=O)O)C%11O)C%10O)C(OS(=O)(=O)O)C9O)C8O)C(OS(=O)(=O)O)C7O)C6O)C(OS(=O)(=O)O)C5O)C4O)C(OS(=O)(=O)O)C3O)C2O)C(OS(=O)(=O)O)C1O (stereo not drawn)", "test system": "human plasma", "setting": "128 µg/mL", "how to read": "reference: control", "measurement": "prothrombin time prolongation", "result": "0.98 fold"}
{"SMILES": "C=C(NC(=O)c1csc(-c2nc3c(cc2O)-c2nc(cs2)C(=O)NC(C(C)O)C(=O)NC(=C(C)OC)c2nc(cs2)C(=O)NC2c4nc(cs4)C(=O)NC(COC(=O)c4c5c6c(cccc6n4O)COC(=O)C(OC4CC(C)(O)C(N(C)C)C(C)O4)C2OC5)c2nc-3cs2)n1)C(N)=O (stereo not drawn)", "target or system": "Staphylococcus aureus", "test system": "MRSA", "setting": "10 isolates", "measurement": "MIC50", "result": "0.0156 µg/mL"}
{"SMILES": "COc1ccc2c(C)nc(Nc3nc(O)cc(-c4ccccc4)n3)nc2c1", "target or system": "Mus musculus", "assay": "gene silencing, high-content imaging", "test system": "LDR reporter GFP cells", "setting": "confirmation, mean of two runs", "measurement": "EC50", "result": "5.62 µM"}
{"SMILES": "O=C(N/N=C/c1cc[n+](CC2CC2)c2ccccc12)c1ccc2ccc3ccc(C(=O)N/N=C/c4cc[n+](CC5CC5)c5ccccc45)nc3c2n1", "target or system": "MYC parallel G4 DNA", "assay": "FRET melting", "setting": "1 µM, DNA 0.2 µM", "measurement": "ΔTm", "result": "14.6 ± 0.3 °C"}
{"SMILES": "COC1OC(C)C(OS(=O)(=O)O)C(OC2OC(C)C(OS(=O)(=O)O)C(OC3OC(C)C(OS(=O)(=O)O)C(OS(=O)(=O)O)C3O)C2O)C1O (stereo not drawn)", "test system": "human plasma", "setting": "128 µg/mL", "measurement": "prothrombin time", "result": "14.3 ± 0.4 s"}
{"SMILES": "CN1CCCNC(=O)c2cccc(c2)C(=O)NCCCN(C)CCCNc2cccc3c2C(=O)c2cccc(c2C3=O)NCCC1", "target or system": "SAS", "assay": "RNA-Seq, item: LMNTD2 mRNA", "setting": "1 µM, 6 h", "how to read": "reference: untreated cells", "measurement": "log2 fold change", "result": 2}
{"SMILES": "C[n+]1ccc(/C=N/NC(=O)c2ccc3ccc4ccc(C(=O)N/N=C/c5cc[n+](C)c6ccccc56)nc4c3n2)c2ccccc21", "target or system": "MYC parallel G4 DNA", "assay": "FRET melting", "setting": "1 µM, DNA 0.2 µM, together with: duplex DNA competitor 10 µM", "measurement": "ΔTm", "result": "7.8 ± 0.7 °C"}
{"SMILES": "Nc1ncc(-c2cc(-c3cnn(CC(F)(F)F)c3)ncc2F)nc1C(=O)NC1CNCC(F)C1 (stereo not drawn)", "target or system": "EIF2AK1", "assay": "KINOMEscan", "setting": "1 µM", "how to read": "reference: DMSO control", "measurement": "remaining binding", "result": "100%"}
{"SMILES": "O=C(N/N=C/c1ccc(C[n+]2ccccc2)cc1)c1cccc(C(=O)N/N=C/c2ccc(C[n+]3ccccc3)cc2)n1", "target or system": "MYC parallel G4 DNA", "assay": "FRET melting", "setting": "1 µM, DNA 0.2 µM", "measurement": "ΔTm", "result": "4.3 ± 0.3 °C"}
{"SMILES": "CC(C)(C)c1cc(-c2ccc3cccnc3n2)nc(-c2ccc3cccnc3n2)c1.[Cl-].[Cl-].[Ru+2].c1ccc2cc3nc4c5cccnc5c5ncccc5c4nc3cc2c1", "target or system": "A-375", "assay": "resazurin", "setting": "together with: light 523 nm, 100 J/cm2", "how to read": "reference: dark EC50 over light EC50", "measurement": "phototoxicity index", "result": 3}
{"SMILES": "N=C(S)N/N=C/c1ncc(C(F)(F)F)cc1Cl", "target or system": "Mus musculus", "assay": "gene silencing, high-content imaging", "test system": "LDR reporter GFP cells", "setting": "retest run 1", "measurement": "AC50", "result": "10 µM"}
{"SMILES": "COC1CN([C@H]2CC[C@H]([C@@]3(C)Oc4c(Cl)cc(C(=O)NCc5c(SC)cc(C)[nH]c5=O)c(C)c4O3)CC2)C1", "assay": "RNA-seq, item: MAML2 mouse homolog", "test system": "mouse, HT-1376 xenograft, whole blood", "setting": "dose not given", "how to read": "reference: vehicle", "measurement": "log2 fold change", "result": 0.0895}
{"SMILES": "O=C(N/N=C/c1ccc2c(ccc[n+]2Cc2ccccc2)c1)N/N=C/c1ccc2c(ccc[n+]2Cc2ccccc2)c1", "target or system": "hp2 hairpin duplex DNA", "assay": "FRET melting", "setting": "1 µM, together with: ds26 10 µM", "measurement": "ΔTm", "result": "1.2 ± 0.3 °C"}
{"SMILES": "CCC(=O)N1CCN(c2ccc(NC(=O)c3ccc([N+](=O)[O-])o3)cc2Cl)CC1", "target or system": "Mus musculus", "assay": "gene silencing, high-content imaging", "test system": "LDR reporter GFP cells", "setting": "retest run 1", "measurement": "AC50", "result": "2 µM"}
{"SMILES": "O=C(N/N=C/c1ccc2c(ccc[n+]2Cc2ccccc2)c1)c1ccc2ccc(C(=O)N/N=C/c3ccc4c(ccc[n+]4Cc4ccccc4)c3)nc2n1", "target or system": "MYC parallel G4 DNA", "assay": "FRET melting", "setting": "1 µM, DNA 0.2 µM, together with: duplex DNA competitor 10 µM", "measurement": "ΔTm", "result": "12.3 ± 0.1 °C"}
{"SMILES": "CCc1nnc(NC(=O)c2cccc(C(=O)Nc3nnc(CC)s3)n2)s1", "target or system": "Mus musculus", "assay": "gene silencing, high-content imaging", "test system": "LDR reporter GFP cells", "setting": "retest run 1", "measurement": "AC50", "result": "10 µM"}
{"SMILES": "C[n+]1ccc(/C=N/NC(=O)N/N=C/c2cc[n+](C)cc2)cc1", "target or system": "hp2 hairpin duplex DNA", "assay": "FRET melting", "setting": "1 µM", "measurement": "ΔTm", "result": "0.2 ± 0.1 °C"}
{"SMILES": "COC1OC(C)C(OS(=O)(=O)O)C(OC2OC(C)C(OS(=O)(=O)O)C(OC3OC(C)C(OS(=O)(=O)O)C(OC4OC(C)C(OS(=O)(=O)O)C(OC5OC(C)C(OS(=O)(=O)O)C(OC6OC(C)C(OS(=O)(=O)O)C(OC7OC(C)C(OS(=O)(=O)O)C(OC8OC(C)C(OS(=O)(=O)O)C(OS(=O)(=O)O)C8OS(=O)(=O)O)C7OS(=O)(=O)O)C6OS(=O)(=O)O)C5OS(=O)(=O)O)C4OS(=O)(=O)O)C3OS(=O)(=O)O)C2OS(=O)(=O)O)C1OS(=O)(=O)O (stereo not drawn)", "test system": "human plasma", "setting": "128 µg/mL", "how to read": "reference: control", "measurement": "prothrombin time prolongation", "result": "0.95 fold"}
